Published values pooled from the literature.
Parts stem from different laboratories: compare values within a part only. Values joined by “and” are separate records of one study, mostly repeats; a detail may differ.
UniProt P43250, sequence (whole entry, looked up): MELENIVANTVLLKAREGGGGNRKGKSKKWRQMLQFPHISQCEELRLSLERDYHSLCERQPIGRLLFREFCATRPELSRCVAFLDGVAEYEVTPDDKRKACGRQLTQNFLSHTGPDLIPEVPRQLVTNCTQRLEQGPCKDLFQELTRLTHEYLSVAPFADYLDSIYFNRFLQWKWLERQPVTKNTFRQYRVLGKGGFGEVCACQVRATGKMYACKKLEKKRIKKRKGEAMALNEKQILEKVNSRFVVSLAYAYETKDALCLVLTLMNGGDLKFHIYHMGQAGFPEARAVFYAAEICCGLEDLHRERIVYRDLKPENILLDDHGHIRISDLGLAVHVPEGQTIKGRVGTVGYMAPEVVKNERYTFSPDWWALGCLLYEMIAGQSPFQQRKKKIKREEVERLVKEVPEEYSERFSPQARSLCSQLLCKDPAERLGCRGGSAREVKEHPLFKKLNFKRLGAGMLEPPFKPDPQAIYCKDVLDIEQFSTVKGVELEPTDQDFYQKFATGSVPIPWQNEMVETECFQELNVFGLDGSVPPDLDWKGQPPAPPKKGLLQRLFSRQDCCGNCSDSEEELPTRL
UniProt Q08881, sequence (whole entry, looked up): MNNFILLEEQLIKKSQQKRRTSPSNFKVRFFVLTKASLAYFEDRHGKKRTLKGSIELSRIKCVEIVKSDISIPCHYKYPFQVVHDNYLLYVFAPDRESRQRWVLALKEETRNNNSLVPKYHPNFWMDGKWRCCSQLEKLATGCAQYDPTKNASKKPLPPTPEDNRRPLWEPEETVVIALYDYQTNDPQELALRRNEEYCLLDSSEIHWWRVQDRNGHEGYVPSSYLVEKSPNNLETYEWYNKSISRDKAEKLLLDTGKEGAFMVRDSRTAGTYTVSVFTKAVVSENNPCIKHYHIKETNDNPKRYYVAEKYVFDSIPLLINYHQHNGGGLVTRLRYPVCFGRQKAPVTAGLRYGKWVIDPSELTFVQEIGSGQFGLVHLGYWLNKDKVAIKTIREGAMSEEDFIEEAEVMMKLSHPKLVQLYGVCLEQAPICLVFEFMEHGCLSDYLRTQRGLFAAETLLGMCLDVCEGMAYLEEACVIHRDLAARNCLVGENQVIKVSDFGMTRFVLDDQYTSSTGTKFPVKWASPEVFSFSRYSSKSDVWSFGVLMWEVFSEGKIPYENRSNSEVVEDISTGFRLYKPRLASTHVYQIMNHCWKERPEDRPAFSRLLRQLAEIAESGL
UniProt Q13554, sequence (whole entry, looked up): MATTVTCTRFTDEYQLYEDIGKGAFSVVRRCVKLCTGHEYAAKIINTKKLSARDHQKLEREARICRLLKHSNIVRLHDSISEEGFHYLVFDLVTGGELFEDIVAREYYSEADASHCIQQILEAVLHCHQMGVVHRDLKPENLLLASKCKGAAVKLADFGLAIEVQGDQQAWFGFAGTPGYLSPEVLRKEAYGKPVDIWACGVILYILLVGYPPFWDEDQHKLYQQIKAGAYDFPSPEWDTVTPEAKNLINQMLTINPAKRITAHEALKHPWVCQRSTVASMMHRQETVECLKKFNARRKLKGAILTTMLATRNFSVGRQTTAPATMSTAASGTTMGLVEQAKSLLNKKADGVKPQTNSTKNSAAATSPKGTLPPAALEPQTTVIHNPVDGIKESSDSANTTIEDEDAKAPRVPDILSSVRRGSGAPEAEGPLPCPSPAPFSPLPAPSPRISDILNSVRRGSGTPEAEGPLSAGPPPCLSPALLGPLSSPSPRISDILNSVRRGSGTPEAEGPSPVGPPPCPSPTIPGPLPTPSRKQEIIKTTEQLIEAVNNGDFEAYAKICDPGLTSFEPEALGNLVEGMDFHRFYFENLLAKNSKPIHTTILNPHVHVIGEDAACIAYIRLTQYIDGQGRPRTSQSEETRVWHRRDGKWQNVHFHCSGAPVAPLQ
UniProt Q9H2K8, sequence (whole entry, looked up): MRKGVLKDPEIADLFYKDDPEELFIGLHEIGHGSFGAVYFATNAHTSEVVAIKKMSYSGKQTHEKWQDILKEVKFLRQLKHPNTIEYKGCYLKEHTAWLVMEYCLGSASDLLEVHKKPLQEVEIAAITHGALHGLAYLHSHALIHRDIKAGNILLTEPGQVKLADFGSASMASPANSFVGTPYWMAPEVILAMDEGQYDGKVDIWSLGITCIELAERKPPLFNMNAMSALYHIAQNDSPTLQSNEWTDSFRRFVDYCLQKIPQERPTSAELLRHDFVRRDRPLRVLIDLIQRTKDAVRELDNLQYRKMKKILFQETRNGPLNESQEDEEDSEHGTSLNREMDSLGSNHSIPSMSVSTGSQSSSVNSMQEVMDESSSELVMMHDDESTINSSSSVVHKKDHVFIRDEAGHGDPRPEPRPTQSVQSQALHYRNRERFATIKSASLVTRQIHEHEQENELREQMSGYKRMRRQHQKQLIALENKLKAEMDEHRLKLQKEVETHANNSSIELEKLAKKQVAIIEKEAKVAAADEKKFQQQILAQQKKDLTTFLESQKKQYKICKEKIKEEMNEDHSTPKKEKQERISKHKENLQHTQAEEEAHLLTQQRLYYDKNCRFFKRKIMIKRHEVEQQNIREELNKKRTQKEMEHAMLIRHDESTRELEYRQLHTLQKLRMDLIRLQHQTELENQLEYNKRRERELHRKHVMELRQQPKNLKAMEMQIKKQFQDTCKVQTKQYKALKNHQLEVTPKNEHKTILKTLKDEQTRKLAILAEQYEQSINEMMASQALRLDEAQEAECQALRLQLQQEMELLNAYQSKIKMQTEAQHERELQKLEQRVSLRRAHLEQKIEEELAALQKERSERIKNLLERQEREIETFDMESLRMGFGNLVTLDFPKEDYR

Block 1
SMILES: CS(=O)(=O)c1ccc(OC/C(=C/F)CN)cc1
Read-out: enzyme activity
| target | test | test system | IC50 |
| --- | --- | --- | --- |
| MAOA (Homo sapiens, UniProt P21397) | inhibitor | – | > 30 µM |
| Amine oxidase [copper-containing] 3 (Rattus norvegicus, UniProt O08590) | inhibitor | – | 0.002 µM |
| Amine oxidase [copper-containing] 3 (Mus musculus, UniProt O70423) | – | mouse adipose tissue | 0.003 µM |
| MAOB (Homo sapiens, UniProt P27338) | inhibitor | – | > 30 µM |

Block 2
Structure (SMILES): C[C@@H]1CN(c2ccc(-c3cc(C(=O)NCCOCCOCCOCCOCCNC(=O)Cn4cc(-c5[nH]cc(C(=O)N[C@@H](CC(N)=O)c6ccc(F)c(Cl)c6)c5-c5ccc(Cl)cc5F)cn4)ccc3F)cc2NC(=O)c2c[nH]c(=O)cc2C(F)(F)F)C[C@H](C)N1C
Read-out: thermal unfolding
Method: differential scanning fluorimetry
Concentration: 5.5 µM
Direction: higher = more unfolded
WDR5: WD repeat-containing protein 5 (WDR5, Homo sapiens, UniProt P61964)
DCAF1: DDB1- and CUL4-associated factor 1 (DCAF1, Homo sapiens, UniProt Q9Y4B6)
UniProt Q9Y4B6, sequence (whole entry, looked up): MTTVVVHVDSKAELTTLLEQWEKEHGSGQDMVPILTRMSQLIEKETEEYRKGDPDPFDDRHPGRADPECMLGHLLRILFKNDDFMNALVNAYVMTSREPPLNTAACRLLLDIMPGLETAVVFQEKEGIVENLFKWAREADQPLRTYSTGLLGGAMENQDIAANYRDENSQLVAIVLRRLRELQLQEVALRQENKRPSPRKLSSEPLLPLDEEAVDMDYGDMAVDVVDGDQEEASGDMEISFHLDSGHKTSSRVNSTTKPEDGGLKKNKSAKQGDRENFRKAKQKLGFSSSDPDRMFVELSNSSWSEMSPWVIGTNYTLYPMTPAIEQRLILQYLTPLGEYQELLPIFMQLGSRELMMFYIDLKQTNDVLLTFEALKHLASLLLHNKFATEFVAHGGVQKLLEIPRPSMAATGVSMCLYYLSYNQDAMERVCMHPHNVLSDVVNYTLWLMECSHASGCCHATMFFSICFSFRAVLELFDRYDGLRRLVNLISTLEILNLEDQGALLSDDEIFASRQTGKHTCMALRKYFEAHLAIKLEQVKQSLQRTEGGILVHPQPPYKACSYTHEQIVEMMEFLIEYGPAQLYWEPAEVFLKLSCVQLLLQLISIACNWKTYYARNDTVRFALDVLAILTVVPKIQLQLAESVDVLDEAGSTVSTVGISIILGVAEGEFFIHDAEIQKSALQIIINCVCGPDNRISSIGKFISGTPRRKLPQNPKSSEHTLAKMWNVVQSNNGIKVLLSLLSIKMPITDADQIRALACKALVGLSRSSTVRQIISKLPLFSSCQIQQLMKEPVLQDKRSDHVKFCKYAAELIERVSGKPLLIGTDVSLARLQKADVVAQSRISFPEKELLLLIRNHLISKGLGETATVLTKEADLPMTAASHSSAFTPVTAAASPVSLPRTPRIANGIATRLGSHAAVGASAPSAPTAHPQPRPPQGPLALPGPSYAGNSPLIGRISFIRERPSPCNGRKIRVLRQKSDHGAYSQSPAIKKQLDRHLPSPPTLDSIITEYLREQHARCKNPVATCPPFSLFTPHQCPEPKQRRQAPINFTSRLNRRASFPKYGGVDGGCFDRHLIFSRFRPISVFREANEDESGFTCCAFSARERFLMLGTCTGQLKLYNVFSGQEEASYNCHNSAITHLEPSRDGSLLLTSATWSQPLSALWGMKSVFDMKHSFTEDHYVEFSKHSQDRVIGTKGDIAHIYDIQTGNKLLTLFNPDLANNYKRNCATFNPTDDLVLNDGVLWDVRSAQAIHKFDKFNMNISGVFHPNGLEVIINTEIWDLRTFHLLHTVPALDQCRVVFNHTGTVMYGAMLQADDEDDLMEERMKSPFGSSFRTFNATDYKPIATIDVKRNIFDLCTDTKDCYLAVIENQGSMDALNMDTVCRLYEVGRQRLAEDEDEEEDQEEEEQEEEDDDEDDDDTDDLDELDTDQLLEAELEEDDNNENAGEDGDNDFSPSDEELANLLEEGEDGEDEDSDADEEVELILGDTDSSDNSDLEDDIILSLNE
| target | conditions | SYPRO Orange fluorescence [a.u.] |
| --- | --- | --- |
| WDR5 | 36.4 °C | 14300 |
| WDR5 | 67.81 °C | 6940 |
| DCAF1 | 80.41 °C | 43900 |
| WDR5 | 49.4 °C | 14500 |
| WDR5 | 32.4 °C | 14400 |
| WDR5 | 87.01 °C | 42900 |
| DCAF1 | 92.81 °C | 32300 |
| WDR5 | 89.01 °C | 43500 |
| DCAF1 | 88.01 °C | 37000 |
| DCAF1 | 94.81 °C | 30100 |
| DCAF1 | 54.21 °C | 18100 |

Block 3
Cell line: MDA-MB-231
Read-out: cell viability
Method: CellCounting-Lite
Concentration: 222.2 nM
Temperature: 37 °C
Direction: higher = more viable cells
| Compound | luminescence signal |
| --- | --- |
| CCn1cnc2c(NCc3nc4cc(Cl)c(Cl)cc4[nH]3)nc(N3CCN(C(=O)c4ccccc4)CC3)nc21 | 13200 a.u. and 12400 a.u. and 10300 a.u. |
| CCn1cnc2c(NCc3nc4cc(Cl)c(Cl)cc4[nH]3)nc(N3CCN(C(=O)CNC(C)=O)CC3)nc21 | 34200 a.u. and 27300 a.u. and 25700 a.u. |
| Cn1cc(-n2cnc3c(NCc4nc5cc(Cl)c(Cl)cc5[nH]4)nc(N4CCNCC4)nc32)cn1 | 49100 a.u. and 38200 a.u. and 45800 a.u. |
| CCn1cnc2c(NCc3nc4cc(Cl)c(Cl)cc4[nH]3)nc(N3CCN(Cc4ccncc4)CC3)nc21 | 19400 a.u. and 24300 a.u. |
| CCn1cnc2c(NCc3nc4cc(Cl)c(Cl)cc4[nH]3)nc(N3CCN(C(C)=O)CC3)nc21 | 11200 a.u. and 10500 a.u. and 11100 a.u. |
| CC(=O)N1CCN(c2nc(NCc3nc4cc(Cl)c(Cl)cc4[nH]3)c3ncn(C(C)C)c3n2)CC1 | 515000 a.u. and 494000 a.u. and 491000 a.u. |
| CCn1cnc2c(NCc3nc4cc(Cl)c(Cl)cc4[nH]3)nc(N3CCn4ncnc4C3)nc21 | 14700 a.u. and 13500 a.u. and 15700 a.u. |
| CC(=O)N1CCN(c2nc(NCc3nc4cc(Cl)c(Cl)cc4[nH]3)c3ncn(-c4cnn(C)c4)c3n2)CC1 | 226000 a.u. and 293000 a.u. and 221000 a.u. |
| CCn1cnc2c(NCc3nc4cc(F)c(F)cc4[nH]3)nc(N3CCn4ncnc4C3)nc21 | 219000 a.u. and 230000 a.u. and 202000 a.u. |

Block 4
Compound: O=C(O)C1(O)Oc2cc(F)ccc2N(Cc2ccccc2)C1=O (stereo not drawn)
| organism | test | test system | conditions | scale | inhibition |
| --- | --- | --- | --- | --- | --- |
| Arabidopsis thaliana | root length | Col-0, seedlings | 12.5 µg/mL | relative to: water control | 73.4% |
| Arabidopsis thaliana | root length | Col-0 | 50.0 µg/mL, 7 days, seed germination, dark | – | 99.2% |
| Arabidopsis thaliana | root length | Col-0, seedlings | 50 µg/mL, with BCAA | – | 10.5% |
| Arabidopsis thaliana | root length | Col-0, seedlings | 50 µg/mL, half-strength MS | – | 99.1% |
| Alopecurus aequalis | fresh weight | – | 150 g ai/ha, pre-emergence treatment | – | 45.2% and 40.2% and 45.1% |
| Arabidopsis thaliana | hypocotyl length | Col-0 | 6.25 µg/mL, 7 days, seed germination, dark | – | 32.7% |
| Arabidopsis thaliana | hypocotyl length | Col-0 | 50.0 µg/mL, 7 days, seed germination, dark | – | 95.7% |
| Echinochloa crus-galli | fresh weight | – | 150 g ai/ha, post-emergence treatment | – | 58.5% and 59.4% and 59.7% |
| Triticum aestivum | fresh weight | – | soil surface spray, 150 g ai/ha, 21 days, pre-emergence crop safety | – | 21.3% and 20.5% and 19.7% |
| Arabidopsis thaliana | hypocotyl length | Col-0, seedlings | 50 µg/mL | – | 95.7% |

Block 5
Structure (SMILES): CCN1/C(=C/C=C2\CCCC(/C=C/C3=[N+](CC)c4ccccc4C3(C)C)=C2NCCCCCCCCN2CCC(Nc3nc4ccccc4n3Cc3ccc(F)cc3)CC2)C(C)(C)c2ccccc21
Cell line: U-87 MG
Concentration: concentration not given
Relative to: DMSO
| test | log2 fold change |
| --- | --- |
| item: ASB2 mRNA | -2.26 |
| item: IL1RL1 mRNA | 3.01 |
| item: SLF2 mRNA | -0.892 |
| item: ACSL1 mRNA | 1.19 |
| item: FUT8 mRNA | -1.19 |
| item: UCP2 mRNA | -1.69 |
| item: CHAF1A mRNA | -1.51 |
| item: AHNAK mRNA | -1.22 |
| item: EME1 mRNA | -2.06 |
| item: PTPRU mRNA | -2 |
| item: SRD5A2 mRNA | 2.46 |
| item: LMNA mRNA | -1.21 |
| item: ARHGAP11B mRNA | -1.8 |
| item: ZNF341 mRNA | -1.53 |
| item: UST mRNA | 1.32 |
| item: PCDHGC5 mRNA | -1.85 |

Block 6
Structure (SMILES): Cc1ncsc1-c1ccc(C(CO)NC(=O)C2CC(O)CN2C(=O)C(C(C)C)n2cc(-c3ccc(COc4c(-c5c(C)c(F)cc6[nH]ncc56)c(C5CC5)cc5c(N6CC7CC6CN7)nc(OC6CCOCC6)nc45)cc3)nn2)cc1 (stereo not drawn)
| test system | conditions | body weight |
| --- | --- | --- |
| mouse, PK-59 xenograft | 1 mg/kg, day 10 | 24.3 g and 30.3 g and 25.4 g and 24.7 g |
| mouse, GP5d xenograft | 30 mg/kg twice weekly, day 14 | 25 g |
| mouse, PK-59 xenograft | 1 mg/kg, day 7 | 24.8 g and 26.1 g and 26.3 g and 24.9 g and 30.5 g |
| mouse, lung LXFA sample A PDX | 10 mg/kg twice weekly, day 15 | 30.6 g and 27.5 g and 27.7 g |
| mouse, HT-29 xenograft | sc, 30 mg/kg once daily, day 6 | 18.4 g and 20.5 g and 17.2 g and 17.5 g and 20.8 g |
| mouse, lung LXFA sample A PDX | 10 mg/kg twice weekly, day 0 | 26.5 g |

Block 7
Compound: Cc1nc(C)c(C=[N+]([O-])C(C)(C)C)nc1C
Method: Western blot
Species: MPTP mouse model
Notes: unit not given
Relative to: β-actin
| test system | conditions | PGC-1α protein level |
| --- | --- | --- |
| substantia nigra cytosol | 10 mg/kg | 104 and 64.8 and 92.4 and 52.9 |
| substantia nigra cytosol | 30 mg/kg | 94.7 and 90.2 and 102 and 119 |
| substantia nigra nuclei | 90 mg/kg | 84.4 and 114 and 115 |
| substantia nigra nuclei | 10 mg/kg | 102 and 84.6 and 75.8 |

Block 8
Compound: CNc1ncc2cc(-c3cc(OC)cc(OC)c3Cl)c(=O)n(CCc3ccc(NC(=O)C(C#N)=CC(C)(C)N4CCOCC4)cc3)c2n1
Read-out: kinase activity
| target | conditions | inhibition [%] |
| --- | --- | --- |
| CAMK1D (Homo sapiens, UniProt Q8IU85) | 1 µM | 12 |
| MAPK14 (Homo sapiens, UniProt Q16539) | 1 µM | 6 |
| TAOK3 (Homo sapiens, UniProt Q9H2K8) | 1 µM | 13 |
| GRK6 (Homo sapiens, UniProt P43250) | 1 µM | 2 |
| MAP4K4 (Homo sapiens, UniProt O95819) | 1 µM | -4 |
| SRPK1 (Homo sapiens, UniProt Q96SB4) | 0.1 µM | 1 |
| SRC (Homo sapiens, UniProt P12931) | 1 µM | 17 |
| CHUK (Homo sapiens, UniProt O15111) | 1 µM | 0 |
| CAMK2B (Homo sapiens, UniProt Q13554) | 0.1 µM | 2 |
| BMX (Homo sapiens, UniProt P51813) | 1 µM | -10 |
| ITK (Homo sapiens, UniProt Q08881) | 0.1 µM | 2 |

Block 9
Cell line: Gaucher fibroblasts L444P/L444P
Method: 4-MUG hydrolysis, cell lysate
Concentration: 10 µM
Time: 72 h
Relative to: vehicle
| Structure (SMILES) | GCase activity [%] |
| --- | --- |
| Ic1ccc(Nc2nc(NCCc3c[nH]c4ccccc34)nc(N3CCOCC3)n2)cc1 | 35 |
| Ic1ccc(Nc2nc(NCCN3CCOCC3)nc(N3CCSCC3)n2)cc1 | 95 |
| CCOc1ccc2nc(Sc3nc(Nc4ccc(I)cc4)nc(N4CCOCC4)n3)sc2c1 | 226 |

Block 10
Structure (SMILES): COCCCCCCC1CC2C(CCC3(C)C(O)CCC23)c2ccc(O)cc21 (stereo not drawn)
| cell line | test | conditions | scale | mRNA level ratio |
| --- | --- | --- | --- | --- |
| PANC-1 | microarray, item: CCL8 | 50 µM | relative to: untreated | 31 |
| SK-OV-3 | microarray, item: ADAMTS14 | 50 µM | relative to: untreated | 1.07 |
| PANC-1 | microarray, item: ADAMTS8 | 10 µM | relative to: untreated | 0.506 |
| A549 | microarray, item: GADD45A | 10 µM | relative to: untreated | 1.94 |
| A549 | microarray, item: ISG20L1 | 10 µM | relative to: untreated | 1.07 |
| PANC-1 | DNA microarray, item: ACTB | 10 µM | relative to: untreated cells | 0.851 |
| SK-OV-3 | microarray, item: ADAMTS8 | 10 µM | relative to: untreated | 0.635 |
| PANC-1 | microarray, item: ISG20L1 | 50 µM | relative to: untreated | 1.82 |
| A549 | microarray, item: ADAMTS8 | 10 µM | relative to: untreated | 0.89 |

Further values, each from its own experiment
PKMYT1: Membrane-associated tyrosine- and threonine-specific cdc2-inhibitory kinase (PKMYT1, Homo sapiens, UniProt Q99640)
UniProt Q99640, sequence (whole entry, looked up): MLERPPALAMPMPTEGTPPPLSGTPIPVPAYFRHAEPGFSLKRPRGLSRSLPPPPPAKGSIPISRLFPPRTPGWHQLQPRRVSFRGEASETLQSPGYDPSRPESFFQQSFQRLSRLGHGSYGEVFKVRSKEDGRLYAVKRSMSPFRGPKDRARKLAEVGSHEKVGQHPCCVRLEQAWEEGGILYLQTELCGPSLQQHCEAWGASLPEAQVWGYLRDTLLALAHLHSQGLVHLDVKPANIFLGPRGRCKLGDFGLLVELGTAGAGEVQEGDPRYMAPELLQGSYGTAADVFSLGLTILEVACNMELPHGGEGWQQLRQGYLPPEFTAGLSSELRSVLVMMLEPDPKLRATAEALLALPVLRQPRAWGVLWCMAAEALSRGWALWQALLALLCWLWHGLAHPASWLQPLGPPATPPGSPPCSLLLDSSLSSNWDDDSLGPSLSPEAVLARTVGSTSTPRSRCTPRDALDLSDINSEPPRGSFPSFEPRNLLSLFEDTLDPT
| Structure (SMILES) | tested on | test | test system | conditions | endpoint | result |
| --- | --- | --- | --- | --- | --- | --- |
| Cc1ccc(O)c(C)c1-c1cnc2[nH]c(-c3cnc(N4CCC5(CC4)CC(N4CCN(c6cc7c(cc6F)c(N6CCC(=O)NC6=O)nn7C)CC4)CO5)nc3)cc2c1C#N (racemic) | PKMYT1 | binding, HTRF | – | 0.051 nM | inhibition | 0.517% and 5.87% |
| Cc1ccc(O)c(C)c1-c1cnc2[nH]c(-c3cnc(N4CCC(CN5CCN(c6ccc(NC7CCC(=O)NC7=O)cc6F)CC5)CC4)nc3)cc2c1C#N (stereo not drawn) | – | – | Sprague-Dawley rat, male, plasma | intravenous, 1 mg/kg | volume of distribution (steady state) | 2.8 L/kg |
| Cc1ncc(-c2cc3c(C#N)c(-c4c(C)ccc(O)c4C)cnc3[nH]2)cn1 | PKMYT1 | cell-free assay, TR-FRET | – | 508 pM | inhibition | 4.44% |
| Cc1ccc(O)c(C)c1-c1cnc2[nH]c(-c3cnc(N4CCC(CN5CCN(c6c(F)cc(NC7CCC(=O)NC7=O)cc6F)CC5)CC4)nc3)cc2c1C#N (racemic) | HCC1569 | in-cell western, item: CDK1 phospho-Thr14 | – | – | IC80 | 0.321 µM |

Some of these lines once more (block 5):
| test | log2 fold change |
| --- | --- |
| item: ASB2 mRNA | -2.26 |
| item: ARHGAP11B mRNA | -1.8 |
| item: ZNF341 mRNA | -1.53 |
| item: PCDHGC5 mRNA | -1.85 |
| item: ACSL1 mRNA | 1.19 |
| item: SRD5A2 mRNA | 2.46 |
| item: AHNAK mRNA | -1.22 |
